Experimental data gathered from unrelated publications.
Protocols differ between the studies behind these lines. ± gives the spread as reported.

Structure (SMILES)	technique	matrix	time	pH	temperature	setting	solubility
O=C(NC1(C(F)(F)F)CC1)c1ccccc1		PBS	2 h	pH 7.4	25 °C	2% DMSO	397 µM
CCOC(=O)N1C[C@@H](c2ccccc2O)N[C@@H](c2cc(Cl)cc(Cl)c2)C1	shake-flask, LC-HRMS	aqueous buffer	16 h	pH 6.8			< 4 µM
CCOC1=CC(c2ccc[nH]2)=N/C1=C\c1cc(Cc2ccc(Cl)cc2)c(C)[nH]1.Cl		potassium phosphate buffer	1.5 h	pH 7.4	room temperature		< 3.13 µM
COc1cc(C(=O)[O-])cc(COC(=O)N(C)C(=O)c2ccc(N3C(=S)N(c4ccc(C#N)c(C(F)(F)F)c4)C(=O)C3(C)C)cc2F)c1OP(=O)([O-])[O-].[Na+].[Na+].[Na+]	HPLC, saturated solution	HBSS	30 s	pH 6.5			> 49000 µg/mL
CNC(=O)c1ccccc1Nc1cc(Nc2ccc(N3CCOCC3)cc2OC)ncc1C(F)(F)F		dimethylacetamide	24 h		25 °C		> 47000 µg/mL
O=C(NCCN1CCCC1)c1cc(-c2ccc(CN3CCOCC3)cc2)nc2ccc(F)cc12		simulated gastric fluid	4 h	pH 1.2	37 °C	relative to free base	> 6490 µM
COc1cc(OC)c2c(=O)c(OC)c(-c3ccc(OC)c(OC)c3)oc2c1	HPLC	ethanol:butylene glycol 100:0					13460 ± 61 ppm
Clc1nc(SCc2ccccc2)c2[nH]cnc2n1	UV absorbance	culture medium				stock diluted to 0.14 mM	34 µM
Cc1cc(/C=C/C#N)cc(C)c1Nc1ccnc(Nc2ccc(C#N)cc2)n1		Capryol 90	24 h		37 °C		2840 ± 150 µg/mL
c1cncc(-c2cccc(Nc3nccc(NC4CC4)n3)c2)c1		citrate phosphate-buffered saline	18 h	pH 7.4		1% DMSO	39.8 ± 3.5 µM
O=C(COc1ccccc1[N+](=O)[O-])Nc1ccccc1N1CCOCC1		aqueous buffer		pH 7.4			< 2.55 µg/mL
O=C(Nc1ccc(OC(F)(F)F)cc1)N[C@H]1CC[C@H](Oc2ccc(C(=O)O)cc2)CC1		deionised water	0.5 min	pH 6.6	37 °C	non-sink dissolution	0.0398 ± 0.0001 µg/mL
O=C(Nc1cc(F)c(F)c(F)c1)c1ccc(F)c(S(=O)(=O)N2CCC(O)CC2)c1		phosphate buffer		pH 7.0			35.8 µg/mL
Cc1noc(C)c1Nc1ccnc2ccc(-c3ccc(S(=O)(=O)N4CCOCC4)cc3)cc12	thermodynamic	aqueous medium					2 µM
Clc1nc(OCc2ccccc2)c2[nH]cnc2n1	UV absorbance	culture medium				stock diluted to 0.20 mM	80 µM
CC(C)(C)C[C@@H]1COC[C@H](c2ccc(C(F)(F)F)cc2)N1	shake-flask, LC-HRMS	aqueous buffer	16 h	pH 6.8			< 4 µM
COc1cc(-c2nnc(SCC(N)=O)n2C)cc(OC)c1OC		aqueous buffer		pH 7.4			> 3760 µg/mL
COc1cccc2c(NCc3ccccc3)nc(-n3c(N)nc4ccccc43)nc12		aqueous buffer		pH 5.0			0.06 µg/mL
O=S(=O)(c1ccc(-c2ccc3ncccc3c2)cc1)N1CCOCC1	thermodynamic	aqueous medium					18 µM
CC1(CNC(=O)c2ccc(C#CC#Cc3ccccc3)cc2)NC(=O)NC1=O (stereo not shown)		aqueous buffer		pH 7.4			< 2.65 µg/mL
CC(C)(C)c1ccc([C@@H]2COC[C@H](C3CCCCC3)N2)cc1	shake-flask, LC-HRMS	aqueous buffer	16 h	pH 6.8			< 4 µM
CCn1c(C(=O)N(C2CC2)C2CC2)cc2c3c(ncn3C)c(Nc3cc(C)n(C)n3)nc21				pH 2.13			398 µg/mL
COC1=CC(c2ccc[nH]2)=N/C1=C\c1[nH]c(-c2ccc(OC)cc2)cc1-c1ccc(OC)cc1		potassium phosphate buffer	1.5 h	pH 7.4	room temperature		8.95 µM
CCCCCCCCCCCCCCCC(=O)NCCO		acetate buffer	12 h	pH 4.5	37 °C		< 16 µg/mL
Cc1nccn1CC1CCc2c(c3ccccc3n2C)C1=O (stereo not shown)	kinetic solubility	PBS with 2% DMSO	2 h	pH 7.4	25 °C	mean of incubations	103 µM

Structure (SMILES)	technique	matrix	time	pH	temperature	setting	solubility
CCOc1ccc(C(C)=O)cc1Cc1c(O)nc(N)nc1O		aqueous buffer		pH 7.4			8.56 µg/mL
CCOC(=O)N1C[C@@H](c2ccc(C)nc2)N[C@@H](C2CCCCC2)C1	shake-flask, LC-HRMS	aqueous buffer	16 h	pH 6.8			> 750 µM
COc1ccc(Nc2ccnc3ccc(-c4ccc(S(=O)(=O)N5CCOCC5)cc4)cc23)cc1C	thermodynamic	aqueous medium					0.1 µM
NC(=O)N1c2ccccc2C=Cc2ccccc21	UV	DPBS	18 h		room temperature		92.5 ± 6.6 µM
CSc1ccc(S(=O)(=O)NCc2ccccn2)cc1		aqueous buffer		pH 7.4			60.9 µg/mL
CC(C)Nc1ccnc(Nc2cccc(-c3ncco3)c2)n1		citrate phosphate-buffered saline	18 h	pH 7.4		1% DMSO	53.8 ± 3.2 µM
NC[C@H](NC(=O)OCC1c2ccccc2-c2ccccc21)C(=O)N[C@H](Cc1c[nH]c2ccccc12)C(=O)N[C@@H](CCCCNC(=O)CN1CCN(CC(=O)O)CCN(CC(=O)O)CCN(CC(=O)O)CC1)C(N)=O		aqueous buffer					< 5000 µM
N=C(N)c1ccc2cc(NS(=O)(=O)c3ccccc3)ccc2c1		aqueous buffer		pH 7.4			66.6 µg/mL
Fc1ccc([C@@H]2COC[C@]3(CC[C@H](c4ccccc4)CC3)N2)c(Cl)c1	shake-flask, LC-HRMS	aqueous buffer	16 h	pH 6.8			< 4 µM
COc1ccc(-c2cc(=O)c3c(OC)cc(OC)cc3o2)cc1	HPLC	ethanol:butylene glycol 50:50					13120 ± 33 ppm
CC(C)Nc1ccnc(Nc2cccc(C(C)(C)C)c2)n1		citrate phosphate-buffered saline	18 h	pH 7.4		1% DMSO	10.1 ± 0.4 µM
CN(Cc1ccc(C2(C(F)(F)F)CC2)cc1)Cc1cccc2ccccc12.Cl		PBS	2 h	pH 7.4	25 °C	2% DMSO	3 µM
Nc1nc2c(ncn2COCCO)c(=O)[nH]1	shake-flask	methanol-ethanol mixture			298.2 K	mass fraction 0.5	486 µg/mL
CC(C)Nc1ccnc(Nc2cccc(-c3ccccc3)c2)n1		citrate phosphate-buffered saline	18 h	pH 7.4		1% DMSO	0.38 ± 0.1 µM
Clc1cc(Cl)cc([C@H]2COC[C@@H](c3ccc(-n4cncn4)cc3)N2)c1	shake-flask, LC-HRMS	aqueous buffer	16 h	pH 6.8			< 4 µM
CC[C@H](C)Nc1ccnc(Nc2cccc(-c3cccnc3)c2)n1		citrate phosphate-buffered saline	18 h	pH 7.4		1% DMSO	15.9 ± 3 µM
O=S(=O)(NCc1ccccn1)c1cc(Cl)c(Cl)cc1Cl		aqueous buffer		pH 7.4			< 3.77 µg/mL
Cn1cncc1[C@@](N)(c1ccc(Cl)cc1)c1ccc2c(c1)c(-c1cccc(Cl)c1)cc(=O)n2C		0.01 N HCl				final pH 2.79	3390 ± 56.6 µg/mL
CCn1c(SCC(=O)Nc2cccc(C(C)=O)c2)nnc1-c1ccncc1		aqueous buffer		pH 7.4			< 2.04 µg/mL
COc1cc(OC)c2c(=O)c(OC)c(-c3ccccc3)oc2c1	HPLC	ethanol:butylene glycol 25:75					2306 ± 2.7 ppm
CCOC(=O)N1C[C@@H](c2cccnc2)N[C@@H](c2ccc(C#N)cc2)C1	shake-flask, LC-HRMS	aqueous buffer	16 h	pH 6.8			> 750 µM
COc1ccc(-n2nc(C(=O)NC(=O)OCc3cc(C(=O)O)ccc3OP(=O)(O)O)c3c2C(=O)N(c2ccc(N4CCCCC4=O)cc2)CC3)cc1	HPLC, saturated solution	simulated gastric fluid	30 s	pH 1.2			240 µg/mL
CCOC(=O)N1C[C@@H](C2CCOCC2)N[C@@H](c2cccc(OC)c2)C1	shake-flask, LC-HRMS	aqueous buffer	16 h	pH 6.8			> 750 µM
COc1cc(OC)c2c(=O)cc(-c3ccccc3)oc2c1	HPLC	ethanol:butylene glycol 50:50					13860 ± 31 ppm

For quick reference, copied from above:
Structure (SMILES)	technique	matrix	time	pH	temperature	setting	solubility
Cc1nccn1CC1CCc2c(c3ccccc3n2C)C1=O (stereo not shown)	kinetic solubility	PBS with 2% DMSO	2 h	pH 7.4	25 °C	mean of incubations	103 µM
CCOc1ccc(C(C)=O)cc1Cc1c(O)nc(N)nc1O		aqueous buffer		pH 7.4			8.56 µg/mL
CCOC(=O)N1C[C@@H](c2ccc(C)nc2)N[C@@H](C2CCCCC2)C1	shake-flask, LC-HRMS	aqueous buffer	16 h	pH 6.8			> 750 µM
